Published values collected from several papers.
Parts stem from different laboratories: compare values within a part only.

Set 1 — technique: aptamer microarray, sandwich; molecule type: DNA with 2'F-ANA; medium: in vitro; tested at: 200 nM; together with: Cy3 exosite-II aptamer, 400 nM; reading: higher = stronger binding; sequence: GGTTGGTGTGGTTGG
Target: Prothrombin, mature alpha-thrombin (F2, Homo sapiens, UniProt P00734)
Notes: whole 15-mer aptamer, many near background
Modification | mean fluorescence intensity [a.u.]
2'F-ANA at 4 6 7 8 13 15 | 213
2'F-ANA at 6 7 10 11 13 14 | 128
2'F-ANA at 1 5 6 7 8 10 11 14 | 48.5
2'F-ANA at 1 2 3 4 5 6 7 9 13 15 | 50.7
2'F-ANA at 2 4 5 6 9 11 12 15 | 95.2
2'F-ANA at 1 3 5 6 7 9 10 11 | 49.6

Set 2 — technique: protein binding microarray; molecule type: double-stranded DNA, one strand shown; medium: in vitro; tested at: not given; baseline: not given; reading: higher = stronger binding
Target: Histone acetyltransferase KAT6A, both winged helices, GST fusion (KAT6A, Homo sapiens, UniProt Q92794, residues 1-181)
Notes: 8-mer, flanks averaged, mean of 2 arrays, mostly near background
Residues (chain): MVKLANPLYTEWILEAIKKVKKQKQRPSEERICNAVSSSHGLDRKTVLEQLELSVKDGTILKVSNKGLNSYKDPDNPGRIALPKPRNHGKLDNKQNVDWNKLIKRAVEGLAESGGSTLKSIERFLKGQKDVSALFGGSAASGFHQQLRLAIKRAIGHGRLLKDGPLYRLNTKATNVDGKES
Sequence | E-score
ACTAGCGA | -0.000675
ATTCCAAT | 0.00679
AGCACGCG | 0.215
ATCCGTCG | 0.26
AAACTAAA | -0.174
CGCACTAG | 0.144
AAAGCTTA | -0.058

Set 3 — technique: universal PBM; molecule type: double-stranded DNA, one strand shown; medium: in vitro; tested at: not given; reading: higher = stronger binding
Target: Sal-like protein 4, full length isoform B (SALL4, Homo sapiens, UniProt Q9UJQ4-2, residues 1-616)
Notes: 8-mer, flanks averaged, mean of replicates
Sequence | E-score
GTCTATCA | 0.156
GCTTGTTA | 0.0541
GTCCATAA | 0.176
AGGACCGA | -0.111
ACCTACAG | -0.0726
GAATGTAC | 0.0466
TACGGCAA | 0.00493
GGCATGTA | 0.112

Mixed results
Molecule | target | assay | system | setting | how to read | measurement | value
PhoQ, residues 284 288 289 292 302 303 ALSMDL | PhoP, residues 12 14 15 18 19 LHSVW (Escherichia coli, UniProt P23836) | Sort-seq, measured: YFP reporter | E. coli | PhoQ-PhoP variant library, together with: 10 µM Mg2+ | baseline: high Mg2+ state, higher = stronger signaling | fold induction | 1.05

Some of these lines once more (set 2):
Sequence | E-score
ATCCGTCG | 0.26
